Measurements of several laboratories.
Protocols differ between the studies behind these lines. “And” joins repeats or separate records; there may be more than shown. ± gives the spread as reported.

Substance | test | test system | setting | Tmax
Cc1noc(C)c1Cn1cc(N2C(=O)CN(Cc3cccc(OS(=O)(=O)O)c3)C2=O)cn1 | – | rat Sprague-Dawley male, plasma | oral, 100 mg/kg of parent drug | 240 min
Ac-CSNLSTCXLGRLSQDLHRLQTYPKTDVGANAP-NH2 (N-acetyl, C-amide) | ELISA | peptide, high-fat diet Sprague Dawley rats, plasma | subcutaneous, 4 nmol/kg | 19.8 min
COC(=O)/C=C/C(=O)c1ccc(OC)cc1 | – | Sprague-Dawley rat, both sexes, plasma | oral, 200 mg/kg | 34.8 ± 27.6 min
N[C@H](COc1ccccc1C(F)(F)F)c1ccccc1 | – | male Sprague-Dawley rat | oral, 25 mg/kg | 90 min
O=C(O)CN1CCN(CC(=O)O)CCN(C(CCC(=O)NCc2ccc(NC(=S)NCCNC(=O)CCCc3ccc(I)cc3)cc2)C(=O)O)CC1 (stereo not drawn) | dynamic PET/CT | Sprague-Dawley rats female, cisterna magna | intracisternal infusion, median | 30 min
CCCC(CCC)NC(=O)c1ccc(O)c(O)c1 | – | male Sprague-Dawley rat, plasma | oral, 20 mg/kg of parent drug | 18.6 min
COc1cc(C=CC(=O)OCC2OC(OC3C(c4c(OC)cc5oc(-c6ccc(O)cc6)cc(=O)c5c4O)OC(CO)C(O)C3O)C(O)C(O)C2O)ccc1O (stereo not drawn) | – | male Sprague-Dawley rat, PCPA-induced insomnia, plasma | oral, 6.8 g/kg | 10.2 min
C=C(c1ncc(C(=O)O)cn1)c1cc2c(cc1C)C(C)(C)CCC2(C)C | – | rat Sprague-Dawley male, plasma | oral, 100 mg/kg, sesame oil | 60 min
N=C(N)NCCC[C@H](NC(=O)[C@@H]1CCCN1C(=O)[C@H](Cc1ccccc1)NC(=O)[C@@H]1CCCN1C(=O)[C@H](Cc1c[nH]cn1)NC(=O)[C@@H](N)Cc1ccccc1)C(=O)O | – | male Sprague-Dawley rat, plasma | intravenous, 10 mg/kg | 2 min
Cc1ccc(/N=N/c2c(O)ccc3ccccc23)c(C)c1 | – | Sprague-Dawley rats both sexes, whole blood | oral, 50 mg/kg | ~81.7 min
CCCC(CCC(=O)O)NC(=O)c1ccc2c(c1)OCO2 (stereo not drawn) | – | male Sprague-Dawley rat, plasma | oral, 20 mg/kg of parent drug | 30 min
CC(=O)[CH](C(C)=O)[Pt-2]1([S+](C)C)[O]C(C)=CC(C)=[O+]1 (stereo not drawn) | item: platinum | rat, plasma | intravenous, dose not given | 30 min
CC(C)CNC(=O)/C=C/CCc1ccc2c(c1)OCO2 | – | rat, sham-operated, plasma | oral, 50 mg/kg | 13.2 ± 4.2 min
CC(C)C[C@H](NC(=O)[C@H](CCCCN)NC(=O)CNC(=O)[C@H](CC(C)C)NC(=O)[C@@H](NC(=O)[C@@H]1CSSC[C@H](N)C(=O)N[C@@H](CO)C(=O)N[C@@H](CC(N)=O)C(=O)N[C@@H](CC(C)C)C(=O)N[C@@H](CO)C(=O)N[C@@H]([C@@H](C)O)C(=O)N1)C(C)C)C(=O)N[C@@H](CO)C(=O)N[C@@H](CCC(N)=O)C(=O)N[C@@H](CCC(=O)O)C(=O)N[C@@H](CC(C)C)C(=O)N[C@@H](Cc1c[nH]cn1)C(=O)N[C@@H](CCCCN)C(=O)N[C@@H](CC(C)C)C(=O)N[C@@H](CCC(N)=O)C(=O)N[C@H](C(=O)N[C@@H](Cc1ccc(O)cc1)C(=O)N1CCC[C@H]1C(=O)N[C@@H](CCCNC(=N)N)C(=O)N[C@H](C(=O)N[C@@H](CC(N)=O)C(=O)N[C@H](C(=O)NCC(=O)N[C@@H](CO)C(=O)NCC(=O)N[C@H](C(=O)N1CCC[C@H]1C(N)=O)[C@@H](C)O)[C@@H](C)O)[C@@H](C)O)[C@@H](C)O | ELISA | hairless Sprague-Dawley rat, male, serum | intravenous, 3 µg | 5 min
CCCC(CCC)NC(=O)c1ccc(OC2OC(C(=O)O)C(O)C(O)C2O)c(O)c1 (stereo not drawn) | – | male Sprague-Dawley rat, plasma | oral, 50 mg/kg of parent drug | 900 min
Cc1noc(C)c1Cn1cc(N2C(=O)CN(Cc3cccc(O[C@@H]4O[C@H](C(=O)O)[C@@H](O)[C@H](O)[C@H]4O)c3)C2=O)cn1 | – | rat Sprague-Dawley male, plasma | oral, 100 mg/kg of parent drug | 30 min
Cc1cc(-c2ccc(NC(=S)Nc3ccc(CNC(=O)CCC(C(=O)O)N4CCN(CC(=O)O)CCN(CC(=O)O)CC4)cc3)c(C)c2)ccc1/N=N/c1ccc2c(S(=O)(=O)O)cc(S(=O)(=O)O)c(N)c2c1O (stereo not drawn) | dynamic PET/CT | Sprague-Dawley rats female, cisterna magna | intracisternal infusion, median | 30 min
CCCC(CCC)NC(=O)c1ccc(OS(=O)(=O)O)c(OC)c1 | – | female Sprague-Dawley rat, plasma | oral, 20 mg/kg of parent drug | 30 min
C=C(c1ccc(C(=O)O)c(F)c1)c1cc2c(cc1C)C(C)(C)C=CC2(C)C | – | rat Sprague-Dawley male, plasma | oral, 100 mg/kg, sesame oil | 60 min
Oc1ccc2ccccc2c1/N=N/c1ccccc1 | – | Sprague-Dawley rats both sexes, whole blood | oral, 50 mg/kg | ~36.3 min
O=c1c2cc(Cl)ccc2sc2c(NCc3ccccc3)nc3ccccc3c12 | – | rat Sprague-Dawley male, plasma | intravenous, 3.0 mg/kg | 8.4 ± 3.6 min
CN1CCN(c2ccc(Nc3ncc(Cl)c(Nc4ccccc4P(C)(C)=O)n3)cc2Br)CC1 | – | Sprague-Dawley rat, male, plasma | oral, 25 mg/kg | 30 min and 120 min and 18 min
CC/C=C\C/C=C\C/C=C\C/C=C\C/C=C\CCCCOC(CC)C(=O)O (stereo not drawn) | – | Wistar rat, male, portal vein plasma | oral, 100 mg/kg | 120 min
Cc1cc(O)c2c(c1)C(=O)c1cc(O)cc(O)c1C2=O.Cc1cc(O)c2c(c1)C(=O)c1cc(O)cc(O)c1C2=O.Cc1nc(C)c(C)nc1C | – | Sprague Dawley rat, plasma | oral, 100 mg/kg, alone or as equimolar cocrystal | 510 ± 233 min
CCCC(CCC)NC(=O)c1ccc(OC2OC(C(=O)O)C(O)C(O)C2O)c(OC)c1 (stereo not drawn) | – | male Sprague-Dawley rat, plasma | oral, 200 mg/kg of parent drug | 480 min
Cc1ccc(OCC(=O)O)cc1 | – | Sprague-Dawley rat Crl:CD(SD), female, plasma | oral, 100 mg/kg/day of parent drug, day 90, 90-day repeated dosing | 180 min
COC(=O)c1ccc2c(c1)NC(=O)/C2=C(\Nc1ccc2c(c1)CCN2C(=O)CN1CCOCC1)c1ccccc1 | – | Sprague-Dawley rat, plasma | oral, 10 mg/kg | 60 min

Some of these lines once more:
Substance | test | test system | setting | Tmax
CC(C)CNC(=O)/C=C/CCc1ccc2c(c1)OCO2 | – | rat, sham-operated, plasma | oral, 50 mg/kg | 13.2 ± 4.2 min
CC(C)C[C@H](NC(=O)[C@H](CCCCN)NC(=O)CNC(=O)[C@H](CC(C)C)NC(=O)[C@@H](NC(=O)[C@@H]1CSSC[C@H](N)C(=O)N[C@@H](CO)C(=O)N[C@@H](CC(N)=O)C(=O)N[C@@H](CC(C)C)C(=O)N[C@@H](CO)C(=O)N[C@@H]([C@@H](C)O)C(=O)N1)C(C)C)C(=O)N[C@@H](CO)C(=O)N[C@@H](CCC(N)=O)C(=O)N[C@@H](CCC(=O)O)C(=O)N[C@@H](CC(C)C)C(=O)N[C@@H](Cc1c[nH]cn1)C(=O)N[C@@H](CCCCN)C(=O)N[C@@H](CC(C)C)C(=O)N[C@@H](CCC(N)=O)C(=O)N[C@H](C(=O)N[C@@H](Cc1ccc(O)cc1)C(=O)N1CCC[C@H]1C(=O)N[C@@H](CCCNC(=N)N)C(=O)N[C@H](C(=O)N[C@@H](CC(N)=O)C(=O)N[C@H](C(=O)NCC(=O)N[C@@H](CO)C(=O)NCC(=O)N[C@H](C(=O)N1CCC[C@H]1C(N)=O)[C@@H](C)O)[C@@H](C)O)[C@@H](C)O)[C@@H](C)O | ELISA | hairless Sprague-Dawley rat, male, serum | intravenous, 3 µg | 5 min
CCCC(CCC)NC(=O)c1ccc(OC2OC(C(=O)O)C(O)C(O)C2O)c(O)c1 (stereo not drawn) | – | male Sprague-Dawley rat, plasma | oral, 50 mg/kg of parent drug | 900 min
Cc1noc(C)c1Cn1cc(N2C(=O)CN(Cc3cccc(O[C@@H]4O[C@H](C(=O)O)[C@@H](O)[C@H](O)[C@H]4O)c3)C2=O)cn1 | – | rat Sprague-Dawley male, plasma | oral, 100 mg/kg of parent drug | 30 min
